# Literature values, collected from citations in different studies.
# Each line is one published result; not all experiments were run side by side. ± marks the error that the study gave.
# Chain of UniProt Q63008 (whole entry, looked up): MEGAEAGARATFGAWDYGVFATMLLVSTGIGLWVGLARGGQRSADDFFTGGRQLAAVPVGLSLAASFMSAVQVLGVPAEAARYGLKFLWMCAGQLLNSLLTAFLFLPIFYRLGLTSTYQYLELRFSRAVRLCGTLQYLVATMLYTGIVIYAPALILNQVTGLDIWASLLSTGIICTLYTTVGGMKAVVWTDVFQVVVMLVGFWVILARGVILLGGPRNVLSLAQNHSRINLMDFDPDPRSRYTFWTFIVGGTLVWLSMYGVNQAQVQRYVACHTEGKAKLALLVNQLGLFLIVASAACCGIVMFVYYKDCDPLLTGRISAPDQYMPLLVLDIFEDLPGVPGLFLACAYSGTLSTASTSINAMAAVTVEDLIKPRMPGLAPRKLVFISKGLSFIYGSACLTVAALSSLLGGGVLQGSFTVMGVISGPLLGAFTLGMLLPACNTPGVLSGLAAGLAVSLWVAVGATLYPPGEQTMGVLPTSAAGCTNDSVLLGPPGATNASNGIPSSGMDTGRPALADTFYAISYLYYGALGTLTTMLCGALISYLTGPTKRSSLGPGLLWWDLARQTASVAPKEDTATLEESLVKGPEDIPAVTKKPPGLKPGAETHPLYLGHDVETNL
# Chain of UniProt P23977 (whole entry, looked up): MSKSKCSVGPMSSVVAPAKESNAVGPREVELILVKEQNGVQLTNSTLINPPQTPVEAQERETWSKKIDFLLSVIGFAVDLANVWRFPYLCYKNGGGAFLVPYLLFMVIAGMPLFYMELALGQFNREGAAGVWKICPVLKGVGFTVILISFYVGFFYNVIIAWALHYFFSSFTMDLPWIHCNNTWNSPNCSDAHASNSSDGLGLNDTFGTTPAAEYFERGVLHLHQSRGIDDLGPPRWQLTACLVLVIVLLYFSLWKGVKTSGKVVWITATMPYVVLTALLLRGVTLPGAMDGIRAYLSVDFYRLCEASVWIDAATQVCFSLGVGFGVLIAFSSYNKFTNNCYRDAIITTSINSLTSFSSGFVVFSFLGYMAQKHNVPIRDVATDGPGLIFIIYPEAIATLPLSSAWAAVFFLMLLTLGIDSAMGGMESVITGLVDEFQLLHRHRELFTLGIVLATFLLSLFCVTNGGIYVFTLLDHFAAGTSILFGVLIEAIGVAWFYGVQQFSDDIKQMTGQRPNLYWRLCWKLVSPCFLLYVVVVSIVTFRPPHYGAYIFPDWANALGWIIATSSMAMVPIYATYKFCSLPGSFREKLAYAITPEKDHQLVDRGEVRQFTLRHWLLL
# Chain of UniProt P28223 (whole entry, looked up): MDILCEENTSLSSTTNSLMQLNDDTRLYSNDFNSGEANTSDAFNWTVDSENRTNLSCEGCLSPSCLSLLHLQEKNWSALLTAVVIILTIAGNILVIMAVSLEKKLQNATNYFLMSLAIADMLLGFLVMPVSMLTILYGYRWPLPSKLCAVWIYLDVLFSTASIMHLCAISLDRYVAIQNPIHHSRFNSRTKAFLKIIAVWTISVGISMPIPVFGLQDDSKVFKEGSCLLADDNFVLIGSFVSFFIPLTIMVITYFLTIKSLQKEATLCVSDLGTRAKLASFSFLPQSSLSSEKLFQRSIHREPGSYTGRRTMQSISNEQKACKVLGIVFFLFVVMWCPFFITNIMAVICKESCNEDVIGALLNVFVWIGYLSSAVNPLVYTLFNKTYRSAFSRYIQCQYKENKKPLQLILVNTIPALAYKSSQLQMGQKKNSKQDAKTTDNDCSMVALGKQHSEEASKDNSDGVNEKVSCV
# Chain of UniProt Q01827 (whole entry, looked up): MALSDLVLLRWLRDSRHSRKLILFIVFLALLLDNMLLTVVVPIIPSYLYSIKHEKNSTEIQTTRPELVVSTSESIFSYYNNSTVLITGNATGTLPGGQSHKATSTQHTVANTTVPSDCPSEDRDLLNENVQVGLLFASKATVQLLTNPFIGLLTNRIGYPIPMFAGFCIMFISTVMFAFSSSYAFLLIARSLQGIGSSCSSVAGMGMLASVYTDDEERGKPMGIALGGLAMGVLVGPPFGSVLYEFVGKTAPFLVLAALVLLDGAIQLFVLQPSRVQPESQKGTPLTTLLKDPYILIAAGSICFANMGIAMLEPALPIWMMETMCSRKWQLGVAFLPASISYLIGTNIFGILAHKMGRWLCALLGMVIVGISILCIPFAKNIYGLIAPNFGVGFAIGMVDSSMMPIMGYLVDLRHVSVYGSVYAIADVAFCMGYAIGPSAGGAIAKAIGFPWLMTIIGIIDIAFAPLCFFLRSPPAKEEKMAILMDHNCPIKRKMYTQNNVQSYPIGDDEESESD
# Chain of UniProt P35372 (whole entry, looked up): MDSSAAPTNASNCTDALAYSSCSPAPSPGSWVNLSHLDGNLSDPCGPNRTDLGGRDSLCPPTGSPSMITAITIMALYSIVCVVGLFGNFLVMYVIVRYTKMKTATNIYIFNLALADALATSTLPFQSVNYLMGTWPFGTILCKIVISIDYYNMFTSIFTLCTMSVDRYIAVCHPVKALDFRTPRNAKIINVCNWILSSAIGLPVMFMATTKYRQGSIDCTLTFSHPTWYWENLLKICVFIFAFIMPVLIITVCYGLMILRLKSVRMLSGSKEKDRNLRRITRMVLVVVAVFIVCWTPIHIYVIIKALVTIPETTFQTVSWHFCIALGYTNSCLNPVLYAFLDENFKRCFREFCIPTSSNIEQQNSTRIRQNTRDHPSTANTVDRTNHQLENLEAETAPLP
Compound,tested on,test,test system,conditions,endpoint,result
CNC(C)C(=O)c1ccc2c(c1)OCO2 (centres unmarked),"Transporter (Slc6a2, Rattus norvegicus, UniProt Q63380)",,,,EC50,140 ± 17 nM
CCCCCCCCCCCCCCCCSC1CC(=O)N(CCC(=O)NCCOCCOCCOCCOCCOCCOCCOCCOCCOCCOCCOCCOCCOCCOCCOCCOCCOCCOCCOCCOCCOCCOCCOCCOCCC(=O)NC(COCCC(=O)NCCOCCOCCOCCOCCC(=O)NCCCC[C@@H](NC(=O)CNC(=O)[C@@H](CC(C)C)NC(=O)[C@@H](CCC(=O)O)NC(=O)[C@H]2CSSC[C@@H](NC(=O)[C@H]3CCCN3C(=O)[C@@H](Cc3c[nH]cn3)NC(C)=O)C(=O)N[C@H](CC(=O)O)C(=O)N[C@H](Cc3ccc(O)cc3)C(=O)N3CCC[C@@H]3C(=O)N[C@H](CCC(=O)O)C(=O)N[C@H](Cc3c[nH]c4ccccc34)C(=O)N[C@H](CCC(N)=O)C(=O)N[C@H](Cc3c[nH]c4ccccc34)C(=O)N[C@H](CC(C)C)C(=O)N2)C(N)=O)(COCCC(=O)NCCOCCOCCOCCOCCC(=O)NCCCC[C@@H](NC(=O)CNC(=O)[C@@H](CC(C)C)NC(=O)[C@@H](CCC(=O)O)NC(=O)[C@H]2CSSC[C@@H](NC(=O)[C@H]3CCCN3C(=O)[C@@H](Cc3c[nH]cn3)NC(C)=O)C(=O)N[C@H](CC(=O)O)C(=O)N[C@H](Cc3ccc(O)cc3)C(=O)N3CCC[C@@H]3C(=O)N[C@H](CCC(=O)O)C(=O)N[C@H](Cc3c[nH]c4ccccc34)C(=O)N[C@H](CCC(N)=O)C(=O)N[C@H](Cc3c[nH]c4ccccc34)C(=O)N[C@H](CC(C)C)C(=O)N2)C(N)=O)COCCC(=O)NCCOCCOCCOCCOCCC(=O)NCCCC[C@@H](NC(=O)CNC(=O)[C@@H](CC(C)C)NC(=O)[C@@H](CCC(=O)O)NC(=O)[C@H]2CSSC[C@@H](NC(=O)[C@H]3CCCN3C(=O)[C@@H](Cc3c[nH]cn3)NC(C)=O)C(=O)N[C@H](CC(=O)O)C(=O)N[C@H](Cc3ccc(O)cc3)C(=O)N3CCC[C@@H]3C(=O)N[C@H](CCC(=O)O)C(=O)N[C@H](Cc3c[nH]c4ccccc34)C(=O)N[C@H](CCC(N)=O)C(=O)N[C@H](Cc3c[nH]c4ccccc34)C(=O)N[C@H](CC(C)C)C(=O)N2)C(N)=O)C1=O (some centres unmarked),HIV-1,"viral entry, luciferase reporter","HOS-CD4-CCR5, JRFL Env pseudovirus",,IC50,0.11 ± 0.012 nM
C[N@+]1(CC2CC2)CC[C@]23c4c5ccc(O)c4O[C@H]2C(=O)CC[C@@]3(O)[C@H]1C5,kappa opioid receptor (human),agonist,,,EC50,> 10000 nM
C=CCN(CC=C)CCc1c[nH]c2ccc(F)cc12,"OPRM1 (Homo sapiens, UniProt P35372)",,,,Ki,> 10000 nM
CCOc1cc(Oc2ccc(C(F)(F)F)cc2Cl)ccc1[N+](=O)[O-],"Sodium/iodide cotransporter (Rattus norvegicus, UniProt Q63008)","iodide uptake, inhibitor",FRTL-5,,EC50,~2000 nM
C=CCN(CC=C)CCc1c[nH]c2ccccc12,"HTR2A (Homo sapiens, UniProt P28223)",binding,cloned human receptor,together with: [3H]ketanserin,Ki,701 nM
CC(C)OC(=O)[C@H]1[C@@H](c2ccc(I)cc2)C[C@@H]2CC[C@H]1N2C [iodine-125 labelled],"dopamine transporter, high-affinity site, mouse",,CD-1 mouse striatal membranes,,Kd,0.12 nM
CN1C/C(=C\c2ccc(Cl)cc2Cl)C/C(=C/c2ccc(Cl)cc2Cl)C1,"Slc18a2 (Rattus norvegicus, UniProt Q01827)",binding,,together with: dihydrotetrabenazine site,Ki,41300 nM
C[C@@H](CO)CCC[C@@H](C)[C@H]1CC[C@H]2[C@@H]3CC=C4C[C@@H](O)CC[C@]4(C)[C@H]3CC[C@]12C,LXR,"reporter gene, agonist",,,EC50,1000 to 10000 nM
CC(=O)N[C@H](Cc1c[nH]cn1)C(=O)N1CCC[C@@H]1C(=O)N[C@@H]1CSSC[C@H](C(=O)N[C@H](CCC(=O)O)C(=O)N[C@H](CC(C)C)C(=O)NCC(=O)N[C@H](CCCCNC(=O)CCOCCOCCOCCOCCNC(=O)CCOCC(C)(COCCC(=O)NCCOCCOCCOCCOCCC(=O)NCCCC[C@@H](NC(=O)CNC(=O)[C@@H](CC(C)C)NC(=O)[C@@H](CCC(=O)O)NC(=O)[C@H]2CSSC[C@@H](NC(=O)[C@H]3CCCN3C(=O)[C@@H](Cc3c[nH]cn3)NC(C)=O)C(=O)N[C@H](CC(=O)O)C(=O)N[C@H](Cc3ccc(O)cc3)C(=O)N3CCC[C@@H]3C(=O)N[C@H](CCC(=O)O)C(=O)N[C@H](Cc3c[nH]c4ccccc34)C(=O)N[C@H](CCC(N)=O)C(=O)N[C@H](Cc3c[nH]c4ccccc34)C(=O)N[C@H](CC(C)C)C(=O)N2)C(N)=O)COCCC(=O)NCCOCCOCCOCCOCCC(=O)NCCCC[C@@H](NC(=O)CNC(=O)[C@@H](CC(C)C)NC(=O)[C@@H](CCC(=O)O)NC(=O)[C@H]2CSSC[C@@H](NC(=O)[C@H]3CCCN3C(=O)[C@@H](Cc3c[nH]cn3)NC(C)=O)C(=O)N[C@H](CC(=O)O)C(=O)N[C@H](Cc3ccc(O)cc3)C(=O)N3CCC[C@@H]3C(=O)N[C@H](CCC(=O)O)C(=O)N[C@H](Cc3c[nH]c4ccccc34)C(=O)N[C@H](CCC(N)=O)C(=O)N[C@H](Cc3c[nH]c4ccccc34)C(=O)N[C@H](CC(C)C)C(=O)N2)C(N)=O)C(N)=O)NC(=O)[C@@H](CC(C)C)NC(=O)[C@@H](Cc2c[nH]c3ccccc23)NC(=O)[C@@H](CCC(N)=O)NC(=O)[C@@H](Cc2c[nH]c3ccccc23)NC(=O)[C@@H](CCC(=O)O)NC(=O)[C@H]2CCCN2C(=O)[C@@H](Cc2ccc(O)cc2)NC(=O)[C@@H](CC(=O)O)NC1=O,HIV-1,"viral entry, luciferase reporter","HOS-CD4-CCR5, JRFL Env pseudovirus",,IC50,2.1 ± 0.28 nM
CN1[C@@H](CCc2ccccc2)CCC[C@H]1CCc1ccccc1,"Slc6a3 (Rattus norvegicus, UniProt P23977)",inhibitor,,,Ki,1570 nM

# A few entries again:
Compound,tested on,test,test system,conditions,endpoint,result
CN1[C@@H](CCc2ccccc2)CCC[C@H]1CCc1ccccc1,"Slc6a3 (Rattus norvegicus, UniProt P23977)",inhibitor,,,Ki,1570 nM
